Experimental data collected from several papers.
Every numbered part comes from another study and shows a few of its results, in no order.

Set 1 — read-out: peptide-MHC binding; molecule type: peptide; reading: direction not given
Target: HLA class I histocompatibility antigen, A alpha chain, allele A*80:01 (Homo sapiens, UniProt P04439)
Molecule	z-score of log IC50
GFAIPIILK	0.38
AINGFVLPK	0.38
AQSDFMSWV	0.38
FHVNPAFVL	0.38
ASSEPHCAL	0.38
FTFERSKIK	0.38
ASLIPDATY	0.38
DIKLIDIAL	0.38
DMYFCHFYK	0.38
PIPVGDIYK	0.38
FPLWNTEKI	0.38
DEMVCKWLL	0.38
AELIDSFTW	0.38
GIVCYNEEV	0.38

Set 2 — read-out: enzyme activity; action: inhibitor; method: radiometric; concentration: 0.5 µM
Target: Leukocyte tyrosine kinase receptor (LTK, Homo sapiens, UniProt P29376)
Chain of UniProt P29376 (whole entry, looked up): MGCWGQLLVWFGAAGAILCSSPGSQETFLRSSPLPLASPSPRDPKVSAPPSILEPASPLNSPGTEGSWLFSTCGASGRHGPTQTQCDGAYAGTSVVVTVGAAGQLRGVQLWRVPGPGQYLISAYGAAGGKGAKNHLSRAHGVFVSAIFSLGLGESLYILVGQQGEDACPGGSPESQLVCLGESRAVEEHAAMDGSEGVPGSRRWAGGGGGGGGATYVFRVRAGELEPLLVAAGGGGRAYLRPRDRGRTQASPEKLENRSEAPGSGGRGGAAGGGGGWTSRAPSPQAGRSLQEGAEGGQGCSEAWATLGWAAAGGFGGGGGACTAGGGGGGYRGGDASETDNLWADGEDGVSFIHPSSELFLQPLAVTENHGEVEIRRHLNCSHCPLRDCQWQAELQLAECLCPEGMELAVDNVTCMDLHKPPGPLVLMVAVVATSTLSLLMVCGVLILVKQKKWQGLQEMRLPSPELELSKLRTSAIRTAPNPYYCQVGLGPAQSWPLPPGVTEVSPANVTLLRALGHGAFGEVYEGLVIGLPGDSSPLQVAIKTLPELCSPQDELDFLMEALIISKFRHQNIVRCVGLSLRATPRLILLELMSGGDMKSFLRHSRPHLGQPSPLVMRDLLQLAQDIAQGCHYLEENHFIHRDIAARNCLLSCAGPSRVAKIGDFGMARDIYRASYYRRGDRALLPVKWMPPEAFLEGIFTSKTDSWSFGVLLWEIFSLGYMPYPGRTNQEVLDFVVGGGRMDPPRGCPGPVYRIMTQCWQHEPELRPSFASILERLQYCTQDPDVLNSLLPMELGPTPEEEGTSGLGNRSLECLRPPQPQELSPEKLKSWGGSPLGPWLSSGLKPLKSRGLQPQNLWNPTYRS
Structure (SMILES)	remaining activity [%]
O=C1Nc2ccc(Cl)cc2C1=Cc1cc(Cl)c(O)c(Cl)c1	36.9
N#C/C(=C\c1ccc(O)c(O)c1)C(=O)NCc1ccccc1	91.4
O=c1cc(-c2cccc3c2Sc2ccccc2S3)oc(N2CCOCC2)c1	94.1
Ic1cccc(CSc2nnc(-c3ccncc3)o2)c1	103
Cc1cn(-c2cc(NC(=O)c3ccc(C)c(Nc4nccc(-c5cccnc5)n4)c3)cc(C(F)(F)F)c2)cn1	101
c1ccc(-c2[nH]ncc2-c2ccnc3ccccc23)nc1	92.8
O=C(Nc1cccc(Nc2nccc(Nc3cccc(C(F)(F)F)c3)n2)c1)C1CC1	104
CN(C)C[C@H]1CCn2c(c(C3=C(c4cn(C)c5ccccc45)C(=O)NC3=O)c3ccccc32)C1	101
Cn1nc2c3c(cccc31)C(=O)c1ccccc1-2	86.7
CCOc1nc(NC(=O)Cc2cc(OC)ccc2OC)cc(N)c1C#N	97.3
O=C1C(Cl)=C(N2C(=O)CCC2=O)C(=O)c2ccccc21	100
O=C1c2ccccc2-c2n[nH]c3cccc1c23	77.8
COc1cc2ncnc(Nc3ccc(O)c(Br)c3)c2cc1OC	5.44
O=c1[nH]c2ccccc2n1C1CCN(Cc2ccc(-c3[nH]c4cc5ncnc5cc4nc3-c3ccccc3)cc2)CC1	95.6

Set 3 — method: RNA Bind-n-Seq; molecule type: RNA; matrix: in vitro; concentration: 1 µM; setting: whole 134-nt RNA, ends assumed; with: 150 mM KCl; reference: input library; reading: higher = stronger binding
Target: Ras GTPase-activating protein-binding protein 1, RRM domain (G3BP1, Homo sapiens, UniProt Q13283)
Chain of UniProt Q13283 (whole entry, looked up): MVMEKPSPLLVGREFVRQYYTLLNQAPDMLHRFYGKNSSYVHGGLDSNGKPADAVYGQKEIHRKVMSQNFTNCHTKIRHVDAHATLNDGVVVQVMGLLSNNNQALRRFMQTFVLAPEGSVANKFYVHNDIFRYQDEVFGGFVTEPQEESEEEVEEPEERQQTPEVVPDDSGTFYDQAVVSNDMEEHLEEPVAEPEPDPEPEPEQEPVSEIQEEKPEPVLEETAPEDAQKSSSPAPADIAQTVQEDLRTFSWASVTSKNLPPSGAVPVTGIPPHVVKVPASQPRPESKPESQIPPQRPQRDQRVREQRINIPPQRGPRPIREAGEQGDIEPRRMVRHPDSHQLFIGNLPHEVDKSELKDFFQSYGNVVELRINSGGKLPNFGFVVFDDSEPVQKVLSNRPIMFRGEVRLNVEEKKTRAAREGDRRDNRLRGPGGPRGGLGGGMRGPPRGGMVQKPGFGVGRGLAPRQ
Shared flanks, not repeated: GGGAGUUCUACAGUCCGACGAUC … UGGAAUUCUCGGGUGUCAAGG
Sequence	log2 enrichment
CAAGUCCUGUGCUACACAUCGUAUGUACCGAAUCGGGGUUUGGGGUUUGGUUUGGGAAAGUAUUAUGUUACGCCGUUCGGAUCUGCACUU	-0.472
AAGUCCUGUGCUACACAUCGUAUGUACCGAAUCGGGUUUUGGGGUUUUGGUUUUGGGAAAGUAUUAUGUUACGCCGUUCGGAUCUGCACU	-0.258
GCAGGAAGUAAAAACAAAUGGAAAUGCUUCGGAUUGUGGCAGGGGUGGGGGUUGCUAAGGAAAGGGUGGGAUGGGAGUGGGUAAAGAGUU	1.03
UCAAGUCCUGUGCUACACAUCGUAUGUACCGAAUCGGUUUUUGGUGGUUUUUGGAAAGUAUUAUGUUACGCCGUUCGGAUCUGCACUUCC	-0.224
AAGUCCUGUGCUACACAUCGUAUGUACCGAAUCGGGUUUUUUUGGGUGGGAAAGGGAAAGUAUUAUGUUACGCCGUUCGGAUCUGCACUU	0.413
AGUCCUGUGCUACACAUCGUAUGUACCGAAUCGGCCCCGGGGCCCCGGGCCCCGGGGAAAGUAUUAUGUUACGCCGUUCGGAUCUGCACU	-1.21
GUCCUGUGCUACACAUCGUAUGUACCGAAUCGGGUUUUUGGGAAAGGGUUUUUUUGGGAAAGUAUUAUGUUACGCCGUUCGGAUCUGCAC	0.13
CUCAAGUCCUGUGCUACACAUCGUAUGUACCGAAUCGGGGCGGGCGGGGCGGGAAAGUAUUAUGUUACGCCGUUCGGAUCUGCACUUCCA	0.19

Further values, each from its own experiment
SMILES	cell line	assay	conditions	how to read	endpoint	result
NC(=O)CN1CCCC1=O	mouse MPNST tumor cells	high-content immunofluorescence imaging, refers to: nuclear SOX9	10 µM, 12 h, mean of 2 replicates	reference: DMSO control, higher = more nuclear SOX9	nuclear SOX9 intensity	99.2 % of DMSO

Repeated from above (set 3):
Sequence	log2 enrichment
AGUCCUGUGCUACACAUCGUAUGUACCGAAUCGGCCCCGGGGCCCCGGGCCCCGGGGAAAGUAUUAUGUUACGCCGUUCGGAUCUGCACU	-1.21
GCAGGAAGUAAAAACAAAUGGAAAUGCUUCGGAUUGUGGCAGGGGUGGGGGUUGCUAAGGAAAGGGUGGGAUGGGAGUGGGUAAAGAGUU	1.03
